Results gathered from unrelated publications.
Each line is one published result; not all experiments were run side by side. Values joined by “and” are separate records of one study, mostly repeats; a detail may differ. ± gives the spread as reported.
Neuropeptide FF receptor 2: Neuropeptide FF receptor 2 (Homo sapiens, UniProt Q9Y5X5)
UniProt Q9Y5X5, sequence (whole entry, looked up): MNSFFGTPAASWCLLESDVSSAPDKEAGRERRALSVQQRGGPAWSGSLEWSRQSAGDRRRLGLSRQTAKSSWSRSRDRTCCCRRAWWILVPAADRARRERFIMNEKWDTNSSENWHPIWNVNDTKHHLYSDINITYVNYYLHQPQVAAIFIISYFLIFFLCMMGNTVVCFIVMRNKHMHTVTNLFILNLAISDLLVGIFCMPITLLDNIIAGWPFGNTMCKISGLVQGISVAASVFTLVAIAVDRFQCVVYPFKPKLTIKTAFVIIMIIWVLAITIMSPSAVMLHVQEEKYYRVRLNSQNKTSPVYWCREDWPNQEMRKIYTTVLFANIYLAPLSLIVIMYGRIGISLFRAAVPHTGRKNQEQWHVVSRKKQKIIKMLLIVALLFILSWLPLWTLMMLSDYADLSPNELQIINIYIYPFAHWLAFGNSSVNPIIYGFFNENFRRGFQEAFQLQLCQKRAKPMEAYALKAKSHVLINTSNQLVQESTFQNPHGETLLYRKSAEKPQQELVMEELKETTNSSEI
Oprd1: Delta-type opioid receptor (Oprd1, Rattus norvegicus, UniProt P33533)
UniProt P33533, sequence (whole entry, looked up): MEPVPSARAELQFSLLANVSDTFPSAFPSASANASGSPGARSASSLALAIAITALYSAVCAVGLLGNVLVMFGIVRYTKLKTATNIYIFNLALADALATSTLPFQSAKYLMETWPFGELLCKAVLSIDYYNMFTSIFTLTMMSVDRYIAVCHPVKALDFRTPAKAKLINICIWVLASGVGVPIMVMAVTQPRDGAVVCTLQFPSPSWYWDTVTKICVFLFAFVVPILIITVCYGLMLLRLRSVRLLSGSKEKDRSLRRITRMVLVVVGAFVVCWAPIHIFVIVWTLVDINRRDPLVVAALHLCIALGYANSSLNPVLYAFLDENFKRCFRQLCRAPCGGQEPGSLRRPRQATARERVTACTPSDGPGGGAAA
HTR6: 5-hydroxytryptamine receptor 6 (HTR6, Homo sapiens, UniProt P50406)
UniProt P50406, sequence (whole entry, looked up): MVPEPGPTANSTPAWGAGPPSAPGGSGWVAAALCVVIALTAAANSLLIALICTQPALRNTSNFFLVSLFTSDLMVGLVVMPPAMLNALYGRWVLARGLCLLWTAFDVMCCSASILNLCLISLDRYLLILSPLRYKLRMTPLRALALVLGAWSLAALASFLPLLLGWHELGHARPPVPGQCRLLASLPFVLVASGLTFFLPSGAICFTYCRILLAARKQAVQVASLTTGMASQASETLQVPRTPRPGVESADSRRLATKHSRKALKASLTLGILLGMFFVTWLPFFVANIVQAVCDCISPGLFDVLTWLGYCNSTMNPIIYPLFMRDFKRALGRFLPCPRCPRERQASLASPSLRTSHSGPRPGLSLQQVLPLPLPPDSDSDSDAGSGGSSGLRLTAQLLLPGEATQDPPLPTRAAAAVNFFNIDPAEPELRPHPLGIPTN
ACHE: Acetylcholinesterase (ACHE, Homo sapiens, UniProt P22303)
UniProt P22303, sequence (whole entry, looked up): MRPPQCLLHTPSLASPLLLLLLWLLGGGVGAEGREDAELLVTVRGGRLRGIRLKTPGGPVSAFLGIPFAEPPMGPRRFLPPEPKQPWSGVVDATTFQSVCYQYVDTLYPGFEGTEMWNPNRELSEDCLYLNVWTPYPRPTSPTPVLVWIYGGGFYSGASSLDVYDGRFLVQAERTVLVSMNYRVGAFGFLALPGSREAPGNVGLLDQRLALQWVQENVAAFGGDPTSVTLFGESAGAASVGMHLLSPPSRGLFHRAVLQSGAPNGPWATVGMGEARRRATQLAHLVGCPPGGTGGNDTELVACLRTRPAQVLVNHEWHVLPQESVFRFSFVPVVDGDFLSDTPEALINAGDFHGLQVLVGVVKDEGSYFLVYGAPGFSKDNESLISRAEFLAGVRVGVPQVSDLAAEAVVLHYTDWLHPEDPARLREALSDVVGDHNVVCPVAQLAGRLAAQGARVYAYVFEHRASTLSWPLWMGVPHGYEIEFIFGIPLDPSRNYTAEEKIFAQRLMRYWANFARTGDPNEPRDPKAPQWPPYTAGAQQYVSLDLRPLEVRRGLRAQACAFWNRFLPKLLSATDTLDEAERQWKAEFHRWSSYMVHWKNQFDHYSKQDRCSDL
UniProt P35348, sequence (whole entry, looked up): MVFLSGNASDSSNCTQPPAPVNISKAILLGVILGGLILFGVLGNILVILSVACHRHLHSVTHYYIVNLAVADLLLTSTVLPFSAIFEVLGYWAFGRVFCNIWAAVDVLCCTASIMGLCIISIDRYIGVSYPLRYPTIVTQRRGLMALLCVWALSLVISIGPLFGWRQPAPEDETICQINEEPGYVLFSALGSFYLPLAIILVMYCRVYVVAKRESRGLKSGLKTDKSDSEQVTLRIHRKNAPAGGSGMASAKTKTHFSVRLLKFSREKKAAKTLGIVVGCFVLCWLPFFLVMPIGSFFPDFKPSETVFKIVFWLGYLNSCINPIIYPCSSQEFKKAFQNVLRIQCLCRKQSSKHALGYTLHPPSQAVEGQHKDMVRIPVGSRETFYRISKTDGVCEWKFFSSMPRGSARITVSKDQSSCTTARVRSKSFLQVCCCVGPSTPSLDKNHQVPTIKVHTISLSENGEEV
UniProt P52700, sequence (whole entry, looked up): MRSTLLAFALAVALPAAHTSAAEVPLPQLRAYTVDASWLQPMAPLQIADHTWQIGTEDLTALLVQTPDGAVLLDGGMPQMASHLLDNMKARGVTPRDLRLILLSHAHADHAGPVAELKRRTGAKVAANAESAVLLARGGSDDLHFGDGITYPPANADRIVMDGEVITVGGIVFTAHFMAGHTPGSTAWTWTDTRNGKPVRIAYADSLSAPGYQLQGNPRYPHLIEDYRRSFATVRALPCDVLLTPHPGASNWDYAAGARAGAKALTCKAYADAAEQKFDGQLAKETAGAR
UniProt Q96NY8, sequence (whole entry, looked up): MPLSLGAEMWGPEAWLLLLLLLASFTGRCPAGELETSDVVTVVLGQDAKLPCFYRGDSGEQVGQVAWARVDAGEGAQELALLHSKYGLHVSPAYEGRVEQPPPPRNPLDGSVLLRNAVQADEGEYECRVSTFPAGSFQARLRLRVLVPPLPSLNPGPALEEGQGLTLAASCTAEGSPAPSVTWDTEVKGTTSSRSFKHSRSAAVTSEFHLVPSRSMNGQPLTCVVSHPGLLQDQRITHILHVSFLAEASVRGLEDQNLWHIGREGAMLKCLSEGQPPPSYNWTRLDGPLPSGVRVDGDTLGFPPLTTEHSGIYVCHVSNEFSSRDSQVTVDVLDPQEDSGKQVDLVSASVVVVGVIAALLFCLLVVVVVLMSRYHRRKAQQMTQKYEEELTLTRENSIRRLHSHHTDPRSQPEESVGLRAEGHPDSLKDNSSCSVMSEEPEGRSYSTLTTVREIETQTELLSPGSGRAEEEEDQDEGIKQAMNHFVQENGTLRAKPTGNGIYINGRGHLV
UniProt Q15375, sequence (whole entry, looked up): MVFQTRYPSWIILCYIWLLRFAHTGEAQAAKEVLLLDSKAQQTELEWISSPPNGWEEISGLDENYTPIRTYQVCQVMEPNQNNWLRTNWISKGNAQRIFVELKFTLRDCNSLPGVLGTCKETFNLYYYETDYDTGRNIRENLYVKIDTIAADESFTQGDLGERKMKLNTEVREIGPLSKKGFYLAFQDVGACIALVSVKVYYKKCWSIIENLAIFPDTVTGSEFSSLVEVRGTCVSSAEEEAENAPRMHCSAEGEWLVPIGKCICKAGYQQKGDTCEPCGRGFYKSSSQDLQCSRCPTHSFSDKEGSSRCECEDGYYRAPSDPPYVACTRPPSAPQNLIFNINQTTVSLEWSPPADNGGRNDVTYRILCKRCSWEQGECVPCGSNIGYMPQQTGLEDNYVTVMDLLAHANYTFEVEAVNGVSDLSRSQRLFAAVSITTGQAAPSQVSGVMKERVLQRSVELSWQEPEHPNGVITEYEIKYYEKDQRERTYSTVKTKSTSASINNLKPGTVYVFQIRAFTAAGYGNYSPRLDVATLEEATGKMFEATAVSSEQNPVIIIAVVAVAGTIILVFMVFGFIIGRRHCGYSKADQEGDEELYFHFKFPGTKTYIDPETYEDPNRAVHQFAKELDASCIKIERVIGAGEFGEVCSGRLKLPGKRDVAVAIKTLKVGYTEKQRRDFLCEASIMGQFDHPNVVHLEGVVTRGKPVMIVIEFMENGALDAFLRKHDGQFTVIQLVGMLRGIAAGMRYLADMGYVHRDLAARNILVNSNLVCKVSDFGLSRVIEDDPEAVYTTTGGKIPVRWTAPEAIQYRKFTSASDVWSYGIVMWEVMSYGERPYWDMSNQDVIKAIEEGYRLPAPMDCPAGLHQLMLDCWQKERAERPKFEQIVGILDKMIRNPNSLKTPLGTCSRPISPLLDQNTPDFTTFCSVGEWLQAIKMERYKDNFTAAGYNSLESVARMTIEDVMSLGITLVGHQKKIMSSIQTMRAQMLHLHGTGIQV
UniProt Q9NSD7, sequence (whole entry, looked up): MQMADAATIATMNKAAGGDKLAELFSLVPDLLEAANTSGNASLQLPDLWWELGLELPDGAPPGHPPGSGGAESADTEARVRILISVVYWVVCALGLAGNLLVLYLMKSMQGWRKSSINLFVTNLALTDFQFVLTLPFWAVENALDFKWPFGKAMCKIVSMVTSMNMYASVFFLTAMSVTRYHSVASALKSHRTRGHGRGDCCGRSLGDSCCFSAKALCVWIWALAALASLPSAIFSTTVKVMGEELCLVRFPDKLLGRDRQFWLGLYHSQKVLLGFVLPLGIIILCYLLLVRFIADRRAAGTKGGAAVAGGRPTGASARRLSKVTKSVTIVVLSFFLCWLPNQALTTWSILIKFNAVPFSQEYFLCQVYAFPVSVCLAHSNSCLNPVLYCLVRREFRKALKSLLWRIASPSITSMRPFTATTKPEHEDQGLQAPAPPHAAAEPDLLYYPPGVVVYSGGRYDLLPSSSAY
UniProt P29117, sequence (whole entry, looked up): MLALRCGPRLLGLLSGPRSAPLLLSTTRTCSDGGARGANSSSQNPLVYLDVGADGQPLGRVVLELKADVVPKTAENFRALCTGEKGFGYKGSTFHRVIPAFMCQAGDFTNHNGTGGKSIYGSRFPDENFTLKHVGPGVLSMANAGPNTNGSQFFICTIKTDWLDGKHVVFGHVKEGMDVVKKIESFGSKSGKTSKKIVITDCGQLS

The Ki of `CC[C@H](C)[C@H](NC(=O)[C@H](Cc1ccccc1)NC(=O)[C@H](CCC(=O)O)NC(=O)[C@H](CCCNC(=N)N)NC(=O)CNC(=O)[C@H](CO)NC(=O)[C@H](CC(C)C)NC(=O)[C@H](CCCNC(=N)N)NC(=O)[C@@H](NC(=O)CNC(=O)[C@H](Cc1ccc(O)cc1)NC(=O)[C@@H]1CCCN1C(=O)[C@H](C)NC(=O)[C@H](C)NC(=O)[C@@H](N)CCCNC(=N)N)C(C)C)C(=O)N[C@@H](CCCNC(=N)N)C(=O)N[C@@H](C)C(=O)N[C@@]1(C)CCCC=CCCC[C@@](C)(C(=O)NCC(=O)NCC(=O)N[C@@H](CO)C(=O)N[C@@H](CCCNC(=N)N)C(=O)N[C@@H](Cc2c[nH]c3ccccc23)C(=O)O)NC(=O)[C@H]([C@@H](C)O)NC(=O)[C@H](Cc2ccccc2)NC(=O)[C@H]([C@@H](C)CC)NC1=O` is reported as 0.955 µM (RXFP3 (Homo sapiens, UniProt Q9NSD7); ligand displacement).
For `NC(c1ccccc1)P(=O)(O)O` (racemic), the Ki was 41.5 µM (PAL1 (Petroselinum crispum, UniProt P24481); enzyme activity, inhibitor, absorbance; pH 8.8).
The Ki of `NCC(=O)NCC1(Nc2ccccc2)CCN(Cc2ccccc2)CC1` is reported as 3.22 µM (Neuropeptide FF receptor 2; cell-free assay).
For `CNC(=O)C1CCN(c2ccccc2NC(=O)c2ccc(-c3cc(O)ccc3C)c(C)n2)CC1`, the Ki was 0.029 µM (EPHA7 (Homo sapiens, UniProt Q15375); cell-free assay, TR-FRET).
`CCCCCCCCNP(=O)(Oc1ccccc1)O[C@@H]1O[C@H](CO)[C@@H](O)[C@H](O)[C@H]1F` (stereo partly shown) gave a Ki of 36.2 µM (GBA1 (Homo sapiens, UniProt P04062); enzyme activity, irreversible inhibitor; pH 5.5, 37 °C, with: 2,4-dinitrophenyl beta-D-glucopyranoside).
`CCSc1nnc(-c2ccc(S(=O)(=O)NC(=O)COC(C)=O)cc2)o1` gave a Ki of 0.0296 µM (CA1 (Homo sapiens, UniProt P00915); enzyme activity, inhibitor).
`CC(C)C[C@@H]1NC(=O)[C@H](Cc2ccc(O)cc2)NC(=O)[C@H](CCCNC(=N)N)NC(=O)[C@H](C(C)C)NC(=O)[C@@H]2CCCN2C(=O)[C@H](Cc2ccccc2)NC(=O)[C@H](C)NC(=O)[C@H](CC(N)=O)NC(=O)[C@H](Cc2ccc(OS(=O)(=O)F)cc2)NC(=O)[C@@H](Cc2ccccc2)NC(=O)CSC[C@@H](C(=O)NCCOCCOCC(=O)NCCOCCOCC(=O)N[C@@H](CCCCN=[N+]=[N-])C(N)=O)NC(=O)[C@H](Cc2c[nH]c3ccccc23)NC(=O)[C@H](CCCNC(=N)N)NC(=O)[C@H](CCCCN)NC1=O` gave a Ki of 4.94 µM (Nectin-4, extracellular domain (Homo sapiens, UniProt Q96NY8); covalent binder, SPR single-cycle kinetics, two-state model; PBS-T; 800 s contact, 200 s dissociation, 25 °C).
`Cc1cc(O)cc(C)c1CC(N)C(=O)NC1CCNc2ccc(CN3CCCCCC3)cc21` (stereo not shown) has a Ki of 0.061 µM (Oprd1; ligand displacement, radioligand; cell membranes).
The Ki of `CN1CCN(c2ccc3cnn(Cc4cccc5ccccc45)c3c2)CC1` is reported as 0.051 µM (HTR6; ligand displacement, radioligand; cell membranes).
`Cc1cc(O)cc(C)c1CC(N)C(=O)NC1CCNc2c(C(=O)Nc3ccccc3)cc(Cc3ccccc3)cc21` (stereo not shown) gave a Ki of 0.0054 µM (Oprd1; ligand displacement, radioligand; cell membranes).
`O=C(O)c1cccc(CP(=O)(O)O)n1` gave a Ki of 0.5 µM (Beta-lactamase L1 (Stenotrophomonas maltophilia, UniProt P52700); enzyme activity, inhibitor).
`CN1CCN(c2cn(Cc3ccccc3)c3ccccc23)CC1` has a Ki of 0.018 µM (HTR6; ligand displacement, radioligand; cell membranes).
For `Cc1cc(O)cc(C)c1CC(N)C(=O)NC1CCNc2c(C(=O)NCc3ccccc3)cc(Cc3ccccc3)cc21` (stereo not shown), the Ki was 0.003 µM (Oprd1; ligand displacement, radioligand; cell membranes).
With `N=C(N)Nc1ccc(C(=O)NCC2(Nc3ccccc3)CCN(Cc3ccccc3)CC2)cc1` the Ki was 1.62 µM (Neuropeptide FF receptor 2; cell-free assay).
`COc1cc2c(cc1OC)C(=O)/C(=C\c1ccc([N+](C)(C)C)cc1)C2` gave a Ki of 3.2 µM (ACHE; enzyme activity, inhibitor).
`COc1ccc2ccc3c(c2c1)C=[N+]1C2CCCCC2[N+]2=Cc4ccc(OCCN5CCCCC5)cc4[O][Au-]21[O]3.F[P-](F)(F)(F)(F)F` (stereo not shown) has a Ki of 15.4 µM (Klebsiella pneumoniae thioredoxin reductase; competitive inhibitor; carbapenem-resistant; with: DTNB).
With `Cc1cc(O)cc(C)c1CC(N)C(=O)NC1CCNc2c(CCc3ccccc3)cc(Cc3ccccc3)cc21` (stereo not shown) the Ki was 0.0014 µM (Oprd1; ligand displacement, radioligand; cell membranes).
`CC(C)C(=O)N[C@H]1c2nc(CCc3ccccc3)cn2[C@H](CO)[C@@H](O)[C@@H]1O` gave a Ki of 0.55 ± 0.01 µM (human lysosomal hexosaminidase A/B).
The Ki of `CC(C)=CCCC1(C)C=Cc2c(ccc3cc(-c4cc(O)cc(O)c4CC=C(C)C)oc23)O1` (stereo not shown) is reported as 3.09 µM (GSK3B (Homo sapiens, UniProt P49841); kinase activity, Kinase-Glo, Dixon plot; competitive with substrate, with: ATP 1 µM constant).
The Ki of `COc1ccc(CNCCN2C(=O)c3cccc4cccc(c34)C2=O)cc1` is reported as over 100 µM (Chitooligosaccharidolytic beta-N-acetylglucosaminidase (Ostrinia furnacalis, UniProt Q06GJ0, W490A); inhibitor).
The Ki of `C/C=C/C[C@@H](C)[C@@H](O)[C@H]1C(=O)N[C@@H](CC)C(=O)N(C)C(Cc2ccc(C(=O)NCCOCCNC(=O)OCC3c4ccccc4-c4ccccc43)cc2)C(=O)N(C)[C@@H](CC(C)C)C(=O)N[C@@H](C(C)C)C(=O)N(C)[C@@H](CC(C)C)C(=O)N[C@@H](C)C(=O)N[C@H](C)C(=O)N(C)[C@@H](CC(C)C)C(=O)N(C)[C@@H](CC(C)C)C(=O)N(C)[C@@H](C(C)C)C(=O)N1C` (stereo partly shown) is reported as 0.006 µM (Peptidyl-prolyl cis-trans isomerase F, mitochondrial (Ppif, Rattus norvegicus, UniProt P29117); PPIase activity, inhibitor; pH 7.5, 15 °C).
`CCN1CCN(C2=Nc3cc(Cl)ccc3Nc3ccccc32)CC1` has a Ki of 0.046 µM and 0.016 to 0.046 µM (ADRA1A (Homo sapiens, UniProt P35348); ligand displacement, radioligand).
`CC[C@H](C)[C@@H]1NC(=O)[C@H](CCOP(=O)(O)O)NC(=O)[C@H](CCc2ccccc2)NC(=O)CSC[C@@H](C(N)=O)NC(=O)[C@H](CC(=O)O)NC(=O)[C@H](CC(=O)O)NC(=O)[C@H](Cc2ccc(OP(=O)(O)O)cc2)NC1=O` has a Ki of 19 ± 2 µM (PPM1D (Homo sapiens, UniProt O15297); phosphatase activity, inhibitor, malachite green; with: ATM pS1981 peptide).
The Ki of `CCCCn1c2ccccc2c2cc(C(=O)c3cccc4ccccc34)ccc21` is reported as 0.0776 µM (CNR1 (Homo sapiens, UniProt P21554); ligand displacement, radioligand; cell membranes).
`O=c1ccoc2ccc(OCCCCN3CCOCC3)cc12` has a Ki of 18.6 µM (ACHE; enzyme activity, inhibitor, Ellman).
